Values quoted from earlier work as cited in several papers.
Lines come from different studies, so protocols differ. Values joined by “and” are separate records of one study, mostly repeats; a detail may differ. ± marks the error that the study gave.

| SMILES | organism | read-out | action | technique | cells | strain | EC50 |
| --- | --- | --- | --- | --- | --- | --- | --- |
| COc1cc2ccc(-c3nc4ccccc4n3Cc3ccccc3Cl)c(OC)c2c(OC)c1OC | Zika virus | viral replication | – | – | – | African strain | 1900 nM |
| O=C1[C@@H]2CCCN2[C@@H](c2ccc([N+](=O)[O-])cc2)N1c1ccc([N+](=O)[O-])cc1 | dengue virus 2 | viral replication | – | – | – | – | 39400 ± 6200 nM |
| O=c1[nH]c(=O)n([C@H]2C[C@H](OC(c3ccccc3)(c3ccccc3)c3ccccc3)[C@@H](COC(c3ccccc3)(c3ccccc3)c3ccccc3)O2)cc1F | dengue virus | viral replication | – | – | – | – | 1.2 µg/mL |
| O=C(NCc1ccc(F)cc1F)c1cn2c(c(O)c1=O)C(=O)N(CCCCCO)CC2 | human immunodeficiency virus 1 | – | – | single-round vector infection | – | wild-type integrase | 54.5 ± 3 nM |
| COc1cc(/C=C2\CCC/C(=C\c3ccc(O)c(OC)c3)C2=O)ccc1O | dengue virus | viral replication | – | replicon | – | – | 8070 ± 1520 nM |
| C1CCCCCC2(CCCCC1)OOCCCOO2 | hepatitis C virus | viral RNA replication | – | – | Huh-7 | – | 25 to 660 nM |
| CC(C)n1ccn2cc(C(=O)NCc3ccc(F)cc3F)c(=O)c(O)c2c1=O | human immunodeficiency virus 1 | – | – | single-round vector infection | – | wild-type integrase | 3.8 ± 0.6 nM |
| CC1(C)N=C(N)N=C(N)N1c1cccc(Cl)c1 | respiratory syncytial virus | viral replication | – | – | – | – | ~8 nM |
| C=C[C@@H]1C[C@]1(NC(=O)[C@@H]1C[C@@H](Oc2cc(-c3ccccc3)nc3cc(OC)ccc23)CN1C(=O)[C@@H](NC(=O)OC(C)(C)C)C(C)(C)C)C(=O)NS(=O)(=O)c1ccccc1 | hepatitis C virus | replicon replication | – | – | – | genotype 1b | 20 nM |
| Cc1cc(O)c(=O)c(O)cc1C(=O)c1ccc(-c2ccccc2)cc1 | herpes simplex virus 1 | viral replication | – | – | – | – | 120 nM |
| COCCCN1CCn2cc(C(=O)NCc3ccc(F)cc3F)c(=O)c(O)c2C1=O | human immunodeficiency virus 1 | – | – | single-round vector infection | – | wild-type integrase | 4 ± 0.7 nM |
| COc1ccc(NC(=O)N2CCCCN3[C@H](CN(C)C)[C@H](c4ccc(C#Cc5ccccc5)cc4)[C@@H]3C2)cc1 | Toxoplasma gondii | parasite growth | – | – | – | RH PheRS L497I-FLuc | 1170 nM |
| O=C(NCc1ccc(F)cc1F)c1cn2c(c(O)c1=O)C(=O)N(CCCCO)CC2 | human immunodeficiency virus 1 | – | – | single-round vector infection | – | wild-type integrase | 75.7 ± 7.4 nM |
| Cc1cc(N2CC[C@@](C#N)(C3(C)CC3)C2=O)cc(C(=O)NCc2cc(F)cc(-c3cnn(C)c3)c2)n1 | Toxoplasma gondii | – | – | – | – | PRS T592S mutant | 76 nM |
| C=CC1CC1(NC(=O)C1CC(Oc2nccc3cc(OC)ccc23)CN1C(=O)C(NC(=O)OC(C)(C)C)C(C)C)C(=O)NS(=O)(=O)C1CC1 (centres unmarked) | hepatitis C virus | replicon replication | – | – | – | genotype 1b | 17 nM |
| COCCN1CCn2cc(C(=O)NCc3ccc(F)cc3F)c(=O)c(O)c2C1=O | human immunodeficiency virus 1 | – | – | single-round vector infection | – | wild-type integrase | 3.9 ± 0.5 nM |
| C=C[C@@H]1C[C@]1(NC(=O)[C@@H]1C[C@@H](Oc2cc(-c3ccccc3)nc3cc(OC)ccc23)CN1C(=O)[C@@H](NC(=O)OC(C)(C)C)C(C)(C)C)C(=O)O | hepatitis C virus | replicon replication | – | – | – | genotype 1b | 550 nM |
| Cc1nc(NCC(F)(F)F)nc(N[C@@H]2C[C@H](CO)[C@@H](O)[C@H]2O)c1-c1nc2ccccc2s1 | hepatitis C virus | HCV replication | inhibitor | – | – | – | 30 nM |
| COCCCn1ccn2cc(C(=O)NCc3ccc(F)cc3F)c(=O)c(O)c2c1=O | human immunodeficiency virus 1 | – | – | single-round vector infection | – | wild-type integrase | 2 ± 0.2 nM |
| O=[N+]([O-])c1ccc(-c2nc3cc4cccnc4c(Cl)c3[nH]2)cc1 | bovine viral diarrhea virus | viral replication | – | – | – | – | 1200 nM |
| O=C(O)c1cn(Cc2ccc(F)cc2)cc(O)c1=O | human cytomegalovirus | viral replication | – | – | – | AD169 GFP reporter | 10000 nM |
| CCCC(=O)Oc1cc(C(F)(F)F)nc2c(C(F)(F)F)cccc12 | Sclerotinia sclerotiorum | fungal growth | – | – | – | – | 0.41 µg/mL |
| O=C(NCc1ccc(F)cc1F)c1cn2c(c(O)c1=O)C(=O)N(CCCCCCO)CC2 | human immunodeficiency virus 1 | – | – | single-round vector infection | – | wild-type integrase | 31.7 ± 3.8 nM |
| C=C[C@@H]1C[C@]1(NC(=O)[C@@H]1C[C@@H](Oc2ncc(OC)c3ccccc23)CN1C(=O)[C@@H](NC(=O)OC(C)(C)C)C(C)(C)C)C(=O)NS(=O)(=O)C1CC1 | hepatitis C virus | replicon replication | – | – | – | genotype 1b | 25 nM and 19 nM |
| COCCCCCCN1CCn2cc(C(=O)NCc3ccc(F)cc3F)c(=O)c(O)c2C1=O | human immunodeficiency virus 1 | – | – | single-round vector infection | – | wild-type integrase | 4.6 ± 0.4 nM |
| COC(=O)N[C@H](C(=O)N1CCC[C@H]1c1ncc(-c2ccc(-c3ccc(-c4cnc([C@@H]5CC6(CN5C(=O)[C@@H](NC(=O)OC)C(C)C)OCCO6)[nH]4)cc3)cc2)[nH]1)C(C)C | hepatitis C virus | – | – | replicon | – | genotype 1b | 0.011 nM |
